Measurements of several laboratories.
Parts stem from different laboratories: compare values within a part only.
Sequence of UniProt P08631 (whole entry, looked up): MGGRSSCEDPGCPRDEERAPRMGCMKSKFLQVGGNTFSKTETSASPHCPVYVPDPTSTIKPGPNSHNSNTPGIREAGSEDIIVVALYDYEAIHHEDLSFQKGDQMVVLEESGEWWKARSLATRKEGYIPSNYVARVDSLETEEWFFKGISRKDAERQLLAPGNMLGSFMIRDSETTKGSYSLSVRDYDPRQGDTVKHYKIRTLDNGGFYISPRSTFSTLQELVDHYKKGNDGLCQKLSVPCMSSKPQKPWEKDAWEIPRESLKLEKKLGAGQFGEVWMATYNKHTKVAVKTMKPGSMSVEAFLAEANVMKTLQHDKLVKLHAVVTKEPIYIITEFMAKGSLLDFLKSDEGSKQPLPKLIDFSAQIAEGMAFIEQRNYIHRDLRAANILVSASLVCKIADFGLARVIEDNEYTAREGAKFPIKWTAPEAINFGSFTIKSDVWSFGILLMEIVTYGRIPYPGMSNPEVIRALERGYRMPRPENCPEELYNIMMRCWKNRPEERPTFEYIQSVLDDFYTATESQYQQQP
Sequence of UniProt O75716 (whole entry, looked up): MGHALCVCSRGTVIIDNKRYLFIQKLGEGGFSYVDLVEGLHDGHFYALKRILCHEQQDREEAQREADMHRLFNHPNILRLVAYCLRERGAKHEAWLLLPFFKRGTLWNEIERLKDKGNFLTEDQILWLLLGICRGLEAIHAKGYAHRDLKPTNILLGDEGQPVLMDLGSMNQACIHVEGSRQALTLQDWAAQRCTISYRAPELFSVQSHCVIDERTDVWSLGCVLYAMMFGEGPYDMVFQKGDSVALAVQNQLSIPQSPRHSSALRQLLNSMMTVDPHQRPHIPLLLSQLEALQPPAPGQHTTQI
Sequence of UniProt Q15349 (whole entry, looked up): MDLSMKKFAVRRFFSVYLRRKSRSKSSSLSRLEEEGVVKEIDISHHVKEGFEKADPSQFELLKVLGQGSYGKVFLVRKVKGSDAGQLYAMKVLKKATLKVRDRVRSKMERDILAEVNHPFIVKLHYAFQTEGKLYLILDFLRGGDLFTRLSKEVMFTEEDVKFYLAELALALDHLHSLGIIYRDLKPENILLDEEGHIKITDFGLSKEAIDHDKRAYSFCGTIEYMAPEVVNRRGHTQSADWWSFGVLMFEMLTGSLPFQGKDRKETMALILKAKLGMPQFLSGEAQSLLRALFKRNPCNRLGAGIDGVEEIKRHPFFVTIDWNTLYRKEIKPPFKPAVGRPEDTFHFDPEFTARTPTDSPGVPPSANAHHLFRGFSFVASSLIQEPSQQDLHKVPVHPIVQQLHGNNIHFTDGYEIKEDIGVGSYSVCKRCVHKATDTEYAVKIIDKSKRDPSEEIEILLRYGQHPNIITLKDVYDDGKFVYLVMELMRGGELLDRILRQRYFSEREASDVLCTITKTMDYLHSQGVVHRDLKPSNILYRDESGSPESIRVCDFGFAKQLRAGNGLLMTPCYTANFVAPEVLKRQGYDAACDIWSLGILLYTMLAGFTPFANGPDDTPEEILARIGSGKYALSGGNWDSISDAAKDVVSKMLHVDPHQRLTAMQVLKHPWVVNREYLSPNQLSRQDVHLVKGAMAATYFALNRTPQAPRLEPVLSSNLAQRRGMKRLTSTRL
Sequence of UniProt P53671 (whole entry, looked up): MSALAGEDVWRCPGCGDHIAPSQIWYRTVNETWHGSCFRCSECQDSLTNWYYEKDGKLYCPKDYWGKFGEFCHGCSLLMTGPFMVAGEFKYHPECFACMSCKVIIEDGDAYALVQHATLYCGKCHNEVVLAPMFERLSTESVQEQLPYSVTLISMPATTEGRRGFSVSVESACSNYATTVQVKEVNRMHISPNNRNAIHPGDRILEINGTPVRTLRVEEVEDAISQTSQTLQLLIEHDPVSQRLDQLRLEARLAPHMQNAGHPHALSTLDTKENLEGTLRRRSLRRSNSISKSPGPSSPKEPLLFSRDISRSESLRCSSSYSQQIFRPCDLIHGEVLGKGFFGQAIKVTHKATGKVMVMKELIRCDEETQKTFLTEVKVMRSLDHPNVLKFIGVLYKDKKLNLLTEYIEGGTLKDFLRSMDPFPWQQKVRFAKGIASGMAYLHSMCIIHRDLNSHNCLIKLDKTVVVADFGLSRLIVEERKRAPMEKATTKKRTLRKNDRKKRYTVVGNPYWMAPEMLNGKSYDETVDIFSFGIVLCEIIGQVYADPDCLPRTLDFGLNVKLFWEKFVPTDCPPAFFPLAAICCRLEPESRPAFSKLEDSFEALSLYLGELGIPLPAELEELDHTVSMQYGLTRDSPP
Sequence of UniProt Q15831 (whole entry, looked up): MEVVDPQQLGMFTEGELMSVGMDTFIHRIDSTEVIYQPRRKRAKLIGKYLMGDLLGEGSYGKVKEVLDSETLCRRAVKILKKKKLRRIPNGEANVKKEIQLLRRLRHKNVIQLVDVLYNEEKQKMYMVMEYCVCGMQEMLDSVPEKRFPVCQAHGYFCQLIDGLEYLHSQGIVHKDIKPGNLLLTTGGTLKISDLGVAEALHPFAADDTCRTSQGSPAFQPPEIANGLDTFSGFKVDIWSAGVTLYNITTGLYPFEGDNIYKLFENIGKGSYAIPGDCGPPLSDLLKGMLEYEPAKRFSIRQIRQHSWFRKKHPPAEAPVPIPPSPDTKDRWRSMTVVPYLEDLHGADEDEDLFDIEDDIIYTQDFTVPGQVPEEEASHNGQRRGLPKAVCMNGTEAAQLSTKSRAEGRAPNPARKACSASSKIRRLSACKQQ

Study 1
Target: Receptor-interacting serine/threonine-protein kinase 2 (RIPK2, Homo sapiens, UniProt O43353)
Sequence of UniProt O43353 (whole entry, looked up): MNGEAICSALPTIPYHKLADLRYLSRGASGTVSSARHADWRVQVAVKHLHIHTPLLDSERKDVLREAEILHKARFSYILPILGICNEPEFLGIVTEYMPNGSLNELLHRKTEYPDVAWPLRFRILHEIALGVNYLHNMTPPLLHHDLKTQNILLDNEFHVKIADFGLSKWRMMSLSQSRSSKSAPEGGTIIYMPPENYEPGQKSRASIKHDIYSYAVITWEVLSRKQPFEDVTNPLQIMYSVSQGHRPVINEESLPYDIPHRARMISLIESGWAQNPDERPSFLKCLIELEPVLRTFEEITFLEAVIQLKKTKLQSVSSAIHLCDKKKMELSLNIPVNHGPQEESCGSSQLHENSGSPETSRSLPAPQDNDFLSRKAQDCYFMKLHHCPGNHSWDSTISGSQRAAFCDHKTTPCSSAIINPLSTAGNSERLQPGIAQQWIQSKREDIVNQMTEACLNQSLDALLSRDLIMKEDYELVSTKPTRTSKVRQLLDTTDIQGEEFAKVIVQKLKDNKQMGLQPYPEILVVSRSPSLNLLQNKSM
Effect on: enzyme activity
Action: inhibitor
Tested at: 0.5 µM
Baseline: control
`CC(=O)c1ccc(N2CCOCC2)cc1O` gave a remaining activity of 103%.
For `Nc1nccc(-c2c(-c3ccc(F)cc3)ncn2C2CCNCC2)n1`, the remaining activity was 77.2%.
`Cc1cc(Nc2nc(-c3ccccc3)nc3ccccc23)n[nH]1` has a remaining activity of 70.4%.
For `NC(=O)c1ccc(N(C(N)=O)c2c(F)cccc2F)nc1-c1ccc(F)cc1F`, the remaining activity was 101%.
The remaining activity of `COc1cc(Nc2c(C#N)cnc3cc(OCCCN4CCN(C)CC4)c(OC)cc23)c(Cl)cc1Cl` is reported as 111%.
With `COc1ccc(S(=O)(=O)N(CCO)c2ccccc2CN(C)CC=Cc2ccc(Cl)cc2)cc1` the remaining activity was 87%.
`Cc1ccc(NC2=CC(=O)c3sc(C)nc3C2=O)cc1` gave a remaining activity of 95.2%.
For `CC(C)(C)n1nc(Cc2cccc3ccccc23)c2c(N)ncnc21`, the remaining activity was 62.6%.
`CC[n+]1c(/C=C/N(C)c2ccccc2)n(-c2ccccc2)c2ccc(-c3nc4ccccc4s3)cc21` gave a remaining activity of 88.6%.
`Nc1nc(Nc2ccc(S(N)(=O)=O)cc2)nn1C(=O)c1c(F)cccc1F` has a remaining activity of 77.8%.
`N#CC(=C(N)Sc1ccc(N)cc1)c1ccccc1C(F)(F)F` has a remaining activity of 91%.
`CCCC(=O)Oc1ccc2[nH]c(C(=O)c3cc4ccccc4[nH]3)cc2c1` has a remaining activity of 90%.
With `O=C1Cc2c([nH]c3ccc([N+](=O)[O-])cc23)-c2ccccc2N1` the remaining activity was 43.4%.
For `O=C1NC(=O)C(c2c[nH]c3ccccc23)=C1c1c[nH]c2ccccc12`, the remaining activity was 97%.
For `CSc1nc(-c2ccnc(N[C@@H](C)c3ccccc3)c2)c(-c2ccc(F)cc2)[nH]1` (racemic), the remaining activity was 85.1%.
For `Nc1ncnc2c1cnn2-c1ccccc1`, the remaining activity was 93.1%.
With `CCc1[nH]c(-c2ccc(OC)cc2)nc1-c1ccncc1` the remaining activity was 95%.
With `Cc1cncc2cccc(S(=O)(=O)N3CCCN(C(=O)CN)C[C@@H]3C)c12` the remaining activity was 94.4%.
`O=S(=O)(NCCNC/C=C/c1ccc(Br)cc1)c1cccc2cnccc12` gave a remaining activity of 77.8%.
`Oc1ccc(Nc2nc(-c3ccc(Cl)cc3)cs2)cc1` has a remaining activity of 96.4%.
With `CC#CC(=O)Nc1cc2c(Nc3ccc(F)c(Cl)c3)ncnc2cn1` the remaining activity was 38.7%.
`Fc1ccc(-c2nc3n(c2-c2ccncc2)CCS3)cc1` gave a remaining activity of 84.7%.

Study 2
Target: Eukaryotic initiation factor 4A-I (EIF4A1, Homo sapiens, UniProt P60842)
Sequence of UniProt P60842 (whole entry, looked up): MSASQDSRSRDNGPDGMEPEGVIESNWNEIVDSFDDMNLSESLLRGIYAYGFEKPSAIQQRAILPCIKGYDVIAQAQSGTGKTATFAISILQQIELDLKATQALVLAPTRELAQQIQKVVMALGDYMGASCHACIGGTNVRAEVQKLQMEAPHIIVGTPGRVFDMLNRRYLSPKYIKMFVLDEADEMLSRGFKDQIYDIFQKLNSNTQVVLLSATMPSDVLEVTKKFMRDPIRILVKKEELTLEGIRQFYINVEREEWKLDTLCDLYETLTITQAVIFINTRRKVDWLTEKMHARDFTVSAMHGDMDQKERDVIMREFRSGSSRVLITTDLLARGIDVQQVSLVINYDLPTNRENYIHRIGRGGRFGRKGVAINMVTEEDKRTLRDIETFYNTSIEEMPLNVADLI
Effect on: RNA clamping
Technique: fluorescence polarization
Tested at: concentration not given
Setting: mean of two replicates
Together with: FAM-labelled poly r(AG)8 RNA
`COC(=O)[C@H]1[C@@H](O)[C@@]2(O)c3c(F)cccc3N(C)[C@@]2(c2ccc(OC)cc2)[C@@H]1c1ccccc1` — result for “fluorescence polarization change”: 3.6 mP.
`COc1ccc([C@@]23Oc4cc(OS(=O)(=O)c5ccc(C)cc5)cc(OC)c4[C@]2(O)c2nc(-c4ccccc4)n(Cc4ccccc4)c(=O)c2[C@H]3c2ccccc2)cc1` — result for “fluorescence polarization change”: -4.2 mP.
`C#CCNC(=O)/C=C/Cn1c(-c2ccccc2)nc2c(c1=O)[C@@H](c1ccccc1)[C@]1(c3ccc(OC)cc3)Oc3cc(OC)cc(OC)c3[C@]21O`: “fluorescence polarization change” 23.6 mP.
`COC(=O)CCCn1c(-c2ccccc2)nc2c(c1=O)[C@H](c1ccccc1)[C@]1(c3ccc(OC)cc3)Oc3cc(OC)cc(OC)c3[C@]21O`: “fluorescence polarization change” 12.9 mP.
For `COc1cc(OC)c2c(c1)O[C@@]1(c3ccc(Br)cc3)[C@H](c3ccccc3)[C@@H](C(=O)N(C)OC)[C@@H](O)[C@@]21O`, “fluorescence polarization change” read 68.1 mP.
For `COC(=O)[C@@H]1[C@@H](c2ccccc2)[C@]2(c3ccc(OC)cc3)Oc3cc(OC)cc(OC)c3[C@@]23OC(c2ccc(OCc4ccccc4)cc2)=N[C@@]13O`, “fluorescence polarization change” read 3.1 mP.
Under “fluorescence polarization change”, `COC(=O)/C=C/Cn1c(-c2ccccc2)nc2c(c1=O)[C@@H](c1ccccc1)[C@]1(c3ccc(OC)cc3)Oc3cc(OC)cc(OC)c3[C@]21O` is recorded as 11.2 mP.
`CONC(=O)[C@H]1[C@@H](O)[C@@]2(O)c3c(OC)cc(O)cc3O[C@@]2(c2ccc(Br)cc2)[C@@H]1c1ccccc1` — result for “fluorescence polarization change”: 67.5 mP.
`CCOC(=O)COc1nc(-c2ccccc2)nc2c1[C@@H](c1ccccc1)[C@]1(c3ccc(OC)cc3)Oc3cc(OC)cc(OC)c3[C@]21OCC(=O)OCC`: “fluorescence polarization change” 5 mP.
`COC(=O)[C@H]1C(=O)[C@@]2(Nc3ccccc3)c3c(OC)cc(OC)cc3O[C@@]2(c2ccc(OC)cc2)[C@@H]1c1ccccc1`: “fluorescence polarization change” -7.7 mP.
`COC(=O)[C@H]1C(=O)[C@@]2(NCc3cccnc3)c3c(OC)cc(OC)cc3O[C@@]2(c2ccc(OC)cc2)[C@@H]1c1ccccc1`: “fluorescence polarization change” -4 mP.
For `COC(=O)[C@@H]1[C@@H](c2ccccc2)[C@]2(c3ccc(OC)cc3)Oc3cc(OC)cc(OC)c3[C@@]23NC(c2csc(C)n2)=N[C@@]13O`, “fluorescence polarization change” read 38.3 mP.
Under “fluorescence polarization change”, `COC(=O)[C@H]1[C@@H](O)[C@@]2(O)c3c(OC)cccc3N(C)[C@@]2(c2ccc(OC)cc2)[C@@H]1c1ccccc1` is recorded as 0.2 mP.
`C#CCCC1(CCOc2ccc([C@@H]3[C@@H](C(=O)c4ccco4)[C@@H](O)[C@@]4(O)c5c(OC)cc(OC)cc5O[C@@]34c3ccc(OC)cc3)cc2)N=N1`: “fluorescence polarization change” 0.9 mP.
`COCCN[C@@]12/C(=N/O)C[C@@H](c3ccccc3)[C@]1(c1ccc(OC)cc1)Oc1cc(OC)cc(OC)c12` — result for “fluorescence polarization change”: -1.6 mP.

Study 3
Organism: Plasmodium berghei
Action: inhibitor
Cells: Huh-7
Strain: GFP-expressing sporozoites, liver stage
Tested at: 10 µM
Time: 24 h
Baseline: untreated control
The infection rate of `C[C@H]1O[C@H](O[C@H]2[C@H](O)[C@@H](O)[C@@H](O[C@H]3[C@H](O)[C@@H](O)C(O)O[C@@H]3CO)O[C@@H]2CO)[C@H](O)[C@@H](O)[C@@H]1N[C@H]1C=C(CO)[C@@H](O)[C@H](O)[C@H]1O` (some centres unmarked) is reported as 87.1%.
`Cc1cc(C2CCCCC2)n(O)c(=O)c1` gave an infection rate of 18.6%.
With `C=CC1=C(C(=O)O)N2C(=O)[C@@H](NC(=O)/C(=N\O)c3csc(N)n3)[C@H]2SC1` the infection rate was 92.8%.
`CN(C)c1nc(N(C)C)nc(N(C)C)n1` has an infection rate of 129%.
`CC(C)(C)NCC(O)c1ccc(O)c(CO)c1` (racemic) has an infection rate of 103%.
With `C=C(CC)C(=O)c1ccc(OCC(=O)O)c(Cl)c1Cl` the infection rate was 88.5%.
The infection rate of `COc1cc(OC)c2c(c1)OC(c1ccccc1)CC2=O` (centres unmarked) is reported as 106%.
`CO[C@@]1(NC(=O)CSCC#N)C(=O)N2C(C(=O)O)=C(CSc3nnnn3C)CS[C@@H]21` gave an infection rate of 103%.
The infection rate of `c1ccc(-c2ccc(C(c3ccccc3)n3ccnc3)cc2)cc1` (centres unmarked) is reported as 52.2%.
With `CN(C)[C@@H]1C(O)=C(C(N)=O)C(=O)[C@@]2(O)C(O)=C3C(=O)c4c(O)ccc(Cl)c4[C@@](C)(O)[C@H]3C[C@@H]12` the infection rate was 51.9%.
For `O=C(O)CN1C(=O)c2cccc3cccc(c23)C1=O`, the infection rate was 111%.
The infection rate of `C[C@]12CC[C@@H]3c4ccc(O)cc4CC[C@H]3[C@@H]1CC[C@@H]2O` is reported as 108%.
The infection rate of `OC(CCN1CCCCC1)(c1ccccc1)C1C[C@@H]2C=C[C@H]1C2` (some centres unmarked) is reported as 103%.
The infection rate of `C[C@]12CC[C@@H]3c4ccc(OS(=O)(=O)O)cc4CC[C@H]3[C@@H]1CCC2=O` is reported as 120%.
The infection rate of `COc1ccc(C(=O)c2ccccc2O)c(O)c1` is reported as 97.8%.
For `CCCCCC(=O)O[C@]1(C(C)=O)CC[C@H]2[C@@H]3CCC4=CC(=O)CC[C@]4(C)[C@H]3CC[C@@]21C`, the infection rate was 2.34%.
`C[C@]12CCC(=O)C=C1CC[C@@H]1[C@@H]2C(=O)C[C@@]2(C)[C@H]1CC[C@]2(O)C(=O)CO` has an infection rate of 92.1%.
`O=C(O)CCCC[C@@H]1SC[C@@H]2NC(=O)N[C@@H]21` gave an infection rate of 95.1%.

Study 4
Compound: O=C(NS(=O)(=O)c1ccc(NCC2CCOCC2)c([N+](=O)[O-])c1)c1ccc(N2CCN(Cc3ccc(C(F)(F)F)cc3-c3ccc(Cl)cc3)CC2)cc1Oc1cnc2[nH]ccc2c1
Effect on: cell-free assay
Technique: competition with immobilised ligand
Tested at: 1 µM
It gave 100% for remaining binding (EGFR (Homo sapiens, UniProt P00533, del746-750)).
STK11 (Homo sapiens, UniProt Q15831) — remaining binding: 100%.
LIM domain kinase 2 (LIMK2, Homo sapiens, UniProt P53671) — remaining binding: 97%.
FGFR1 (Homo sapiens, UniProt P11362) — remaining binding: 91%.
It gave 90% for remaining binding (ERN1 (Homo sapiens, UniProt O75460)).
For Ribosomal protein S6 kinase alpha-2, N-terminal kinase domain (RPS6KA2, Homo sapiens, UniProt Q15349): remaining binding read 100%.
It gave 100% for remaining binding (Ribosomal protein S6 kinase alpha-4, N-terminal kinase domain (RPS6KA4, Homo sapiens, UniProt O75676)).
The remaining binding was 100% (PRKD3 (Homo sapiens, UniProt O94806)).
It gave 80% for remaining binding (DYRK1B (Homo sapiens, UniProt Q9Y463)).
It gave 86% for remaining binding (TAOK3 (Homo sapiens, UniProt Q9H2K8)).
The remaining binding was 100% (CDK11A (Homo sapiens, UniProt Q9UQ88)).
It gave 100% for remaining binding (MAP3K1 (Homo sapiens, UniProt Q13233)).
It gave 100% for remaining binding (Receptor-type tyrosine-protein kinase FLT3, autoinhibited (FLT3, Homo sapiens, UniProt P36888)).
It gave 91% for remaining binding (STK16 (Homo sapiens, UniProt O75716)).
It gave 99% for remaining binding (HCK (Homo sapiens, UniProt P08631)).
WNK3 (Homo sapiens, UniProt Q9BYP7) — remaining binding: 100%.

A few entries again (study 1):
For `CSc1nc(-c2ccnc(N[C@@H](C)c3ccccc3)c2)c(-c2ccc(F)cc2)[nH]1` (racemic), the remaining activity was 85.1%.
`Nc1nc(Nc2ccc(S(N)(=O)=O)cc2)nn1C(=O)c1c(F)cccc1F` has a remaining activity of 77.8%.
With `Cc1cncc2cccc(S(=O)(=O)N3CCCN(C(=O)CN)C[C@@H]3C)c12` the remaining activity was 94.4%.
`CCCC(=O)Oc1ccc2[nH]c(C(=O)c3cc4ccccc4[nH]3)cc2c1` has a remaining activity of 90%.
For `Nc1nccc(-c2c(-c3ccc(F)cc3)ncn2C2CCNCC2)n1`, the remaining activity was 77.2%.
For `Nc1ncnc2c1cnn2-c1ccccc1`, the remaining activity was 93.1%.
